Measured values of several laboratories.
Protocols differ between the studies behind these lines.

SMILES | test | system | conditions | scale | measurement | result
Cc1cc(-c2nnc(N)nc2-c2ccc(F)cc2)cc(Cl)n1 | refers to: Rash | IO-naive mCRPC patients, male | oral, dose not given, treatment-related, grade ≥3 |  | patients with immune-mediated AE | 0%
C[C@@H](Nc1cc(F)cc(F)c1)c1cc(C(=O)N(C)C)cc2c(=O)cc(N3CCOCC3)oc12 | refers to: Hypotension | advanced solid tumour patients | oral, dose not given, dose expansion |  | patients discontinuing for AE | 0%
CC(C)C[C@H](NC(=O)CNC(=O)c1cc(Cl)ccc1Cl)B(O)O | refers to: Insomnia, all grades | newly diagnosed multiple myeloma patients | oral, dose not given, maintenance phase, new onset, cycle 17 or later |  | patients with adverse event | 0%
Cc1cc(NC2CCN(C(=O)OC3CCN(C(=O)/C=C/CN(C)C)C3)CC2)n2ncc(C(C)C)c2n1 (stereo not shown) |  | patients with advanced solid tumours | dose not given, Total arm, grade 3 or higher |  | patients with adverse events | 41%
O=C(Nc1nc2cccc(-c3ccc(CN4CCS(=O)(=O)CC4)cc3)n2n1)C1CC1 |  | rheumatoid arthritis patients | oral, 100 mg twice daily, 4 weeks, TEAE regardless of relatedness |  | patients with Vomiting | 0%
CNC(=O)c1cc(Oc2ccc(NC(=O)Nc3cc(C(C)(C)C)nn3-c3ccc4ncccc4c3)c(F)c2)ccn1 |  | patients | oral, dose not given, cycles 1 and 2, Low AUC subgroup |  | patients with grade 1 musculoskeletal disorders | 20%
C[C@@H](c1ccc2nccn2c1)n1nnc2ncc(-c3cnn(C)c3)nc21 | refers to: treatment-related grade ≥3 Neutropenia | EGFR-mutant MET-altered NSCLC | oral, dose not given, all |  | patients with adverse events | 2%
C=CC(=O)NC1CCN(c2ncc3ncnc(Nc4ccc(Oc5ccc6c(c5)ncn6C)c(C)c4)c3n2)CC1 |  | male patients | oral, dose not given, treatment-related adverse events |  | patients with back pain | 0%
CNC(=O)c1ccc(-c2cnc3ncc(Cc4ccc5ncccc5c4)n3n2)cc1F | refers to: Anemia | gastric cancer patients | oral, 600 mg twice daily, expansion cohort, grade 3-4 |  | patients with adverse event | 0%
COc1ccc([C@@H](O)c2cc(-c3ncnc4cc(N5CCOCC5)ccc34)c(F)cc2Cl)nn1 |  | locally advanced rectal cancer patients | 150 mg, drug-related adverse events, added: capecitabine and radiotherapy |  | patients with fatigue | 17%
CCO[C@H]1CCN(Cc2c(OC)cc(C)c3[nH]ccc23)[C@H](c2ccc(C(=O)O)cc2)C1 | refers to: Hematuria | PNH patients, active haemolysis | oral, 200 mg twice daily, extension phase |  | patients with adverse event | 0%
CCOc1c([C@H](C)n2nc(C)c3c(N)ncnc32)cc(Cl)c(F)c1[C@@H]1CNC(=O)C1 | refers to: QTcF change above 60 ms | previously treated B-cell malignancy | oral, 15 mg once daily, baseline QTcF ≤450 ms | baseline: baseline | patients | 0%
COc1cc(Nc2ncc3c(n2)-c2ccc(Cl)cc2C(c2c(F)cccc2OC)=NC3)ccc1C(=O)O | refers to: increased ALP, all grades | cancer patients, phase 1/2 | oral, dose not given, added: pembrolizumab |  | patients with adverse event | 25%

Repeated from above:
SMILES | test | system | conditions | scale | measurement | result
CC(C)C[C@H](NC(=O)CNC(=O)c1cc(Cl)ccc1Cl)B(O)O | refers to: Insomnia, all grades | newly diagnosed multiple myeloma patients | oral, dose not given, maintenance phase, new onset, cycle 17 or later |  | patients with adverse event | 0%
Cc1cc(NC2CCN(C(=O)OC3CCN(C(=O)/C=C/CN(C)C)C3)CC2)n2ncc(C(C)C)c2n1 (stereo not shown) |  | patients with advanced solid tumours | dose not given, Total arm, grade 3 or higher |  | patients with adverse events | 41%
